Results gathered from unrelated publications.
Each numbered part is a random draw from the data of one study; scales do not carry over between parts. Positions count from the first letter of the parent shown.

Block 1 — technique: RNA Bind-n-Seq; form: RNA; medium: in vitro; concentration: 1 µM; setting: whole 134-nt RNA, ends assumed; added: 150 mM KCl; relative to: input library; reading: higher = stronger binding
Target: Ras GTPase-activating protein-binding protein 1, RRM domain (G3BP1, Homo sapiens, UniProt Q13283)
UniProt Q13283, sequence (whole entry, looked up): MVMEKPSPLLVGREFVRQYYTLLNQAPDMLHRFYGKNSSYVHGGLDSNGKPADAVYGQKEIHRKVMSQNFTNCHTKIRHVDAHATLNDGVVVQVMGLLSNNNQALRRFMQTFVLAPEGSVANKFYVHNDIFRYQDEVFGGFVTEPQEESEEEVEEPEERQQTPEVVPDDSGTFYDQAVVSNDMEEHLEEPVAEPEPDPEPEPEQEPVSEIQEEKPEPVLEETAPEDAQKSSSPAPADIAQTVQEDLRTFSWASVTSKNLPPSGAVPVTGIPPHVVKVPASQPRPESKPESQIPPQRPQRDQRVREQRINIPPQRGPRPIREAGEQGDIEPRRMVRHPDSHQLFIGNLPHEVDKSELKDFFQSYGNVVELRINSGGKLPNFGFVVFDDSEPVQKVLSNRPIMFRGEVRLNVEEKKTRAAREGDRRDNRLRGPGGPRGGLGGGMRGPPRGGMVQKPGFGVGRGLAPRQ
All sequences stand within: GGGAGUUCUACAGUCCGACGAUC … UGGAAUUCUCGGGUGUCAAGG
Oligonucleotide	log2 enrichment
UUGGGUCCAGACUGCGCCACAGCCUCUCGGGAGACGUGGGCCCUCGGAACCUUUUUAGUGCCGGACUCCGGGCCGCAGGCAGUCCCGCGG	-0.898
UAACUUUAGAGGAGGAUCUGCUGGAUAUGGCAGUGGACGUGGAUUUGGGGAUGGCUAUAAUGGGUAUGGAGGAGGACCUGGAGGUGGCAA	-0.615
UCCUCAAGUCCUGUGCUACACAUCGUAUGUACCGAAUCGGGGCGGCGGGCGGAAAGUAUUAUGUUACGCCGUUCGGAUCUGCACUUCCAG	-0.175
UGGCCCUGGUGGCAUGCGGGGAGGAAGAGGUGGCCUCAUGGAUCGUGGUGGUCCCGGUCGAAUGUUCAGAGGUGGCCGUGGUGGAGACAG	0.695
CCUCAAGUCCUGUGCUACACAUCGUAUGUACCGAAUCGGAAAAAGGAGGAGGAAAGUAUUAUGUUACGCCGUUCGGAUCUGCACUUCCAG	-0.0886
GUCCUGUGCUACACAUCGUAUGUACCGAAUCGGAAAAAGGUUUUUUUGGUUUUUUUGGAAAGUAUUAUGUUACGCCGUUCGGAUCUGCAC	-0.458
CAAGUCCUGUGCUACACAUCGUAUGUACCGAAUCGGGAAAGGGAGGGAAAAAGGGAAAGUAUUAUGUUACGCCGUUCGGAUCUGCACUUC	0.892
UCCUGUGCUACACAUCGUAUGUACCGAAUCGGGGUUUUUGGGGUUUGGGGAAAAAGGGGAAAGUAUUAUGUUACGCCGUUCGGAUCUGCA	1.1
UGGGAGGUGGAUUUUGUUUAUUUUCUUAGCUCAUUUCCAGGGGUGGGAAUUUUUUUUUAAUAUGUGUCAUGAAUAAAGUUGUUUUUGAAA	1.73
UCAAGUCCUGUGCUACACAUCGUAUGUACCGAAUCGGGGCCCGGGCCCGGCCCGGAAAGUAUUAUGUUACGCCGUUCGGAUCUGCACUUC	-0.708
UGGGAGGUGGAUUUUGUUUAUUUUUUUAGCUCAUUUCCAGGGGUGCGAAUUUUUUUUUAAUAUGUGUCAUGAAUAAAGUUGUUUUUGAAA	1.3

Block 2 — technique: protein binding microarray; form: double-stranded DNA, one strand shown; medium: in vitro; concentration: not given; relative to: not given; reading: higher = stronger binding
Target: Histone acetyltransferase KAT6A, winged helix 1, GST fusion (KAT6A, Homo sapiens, UniProt Q92794, residues 1-85)
Setting: 8-mer, flanks averaged, mean of 2 arrays, mostly near background
Residues (chain): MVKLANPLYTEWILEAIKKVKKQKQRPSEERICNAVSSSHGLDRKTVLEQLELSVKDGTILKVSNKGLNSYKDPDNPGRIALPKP
Oligonucleotide	E-score
CTATTCCC	-0.0115
ACCAGAGT	-0.0901
AGGAAGGA	-0.204
AGTTCAAC	-0.17
CTGCGGCC	0.348
GATCTGGA	-0.271
ATTGCTAA	-0.0732
CTCAGTTC	-0.186
AACCTATA	0.0334
TCGGGCCA	0.0929
AGAACGCT	-0.0569
CCGCTAGA	0.178
CAAAGCTC	-0.14
GTGACCCA	-0.124
GTCTTGAA	-0.0106
ACCCGAAA	0.0532
CGCGTGTA	0.218
AATCTTTG	-0.194
CTCGGGCC	0.183
ACCATATC	-0.122
CCTGTTTC	-0.239
AGCCTGCA	-0.118
GGGTATGA	-0.000575
GATTCCTA	-0.016
AAGTGCTG	-0.23

Block 3 — technique: RNA Bind-n-Seq; form: RNA; medium: in vitro; concentration: 365 nM; relative to: no-protein control; reading: higher = stronger binding
Target: RNA binding protein fox-1 homolog 2, RRM domain, GST-SBP tag (RBFOX2, Homo sapiens, UniProt O43251-10, residues 100-194)
Setting: natural RNA segment, single round, ends assumed
All sequences stand within: GGGAGUUCUACAGUCCGACGAUC … UGGAAUUCUCGGGUGCCAA
Construct (chain): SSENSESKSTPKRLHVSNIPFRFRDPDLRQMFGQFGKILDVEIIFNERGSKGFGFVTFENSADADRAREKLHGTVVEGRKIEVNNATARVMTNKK
Oligonucleotide	RBNS enrichment (R)
CACCCCUCUUCCCAGGCCUGACUUCUGAGUAGGACCCUGGGUCAGGGCUAAGUGUUGAAUUUACCCUUCCUGGUUAACACCUGUUUUGUUGGUUUUUUUAUUAUUAUUAU	0.777
GGUGUCGUGUUCUAUGAUAAUGAAAGCAUCAGGAAAGCUUUUGUACUUAGUGGUUUUCUCUAUUUUGAAAUUUUUUGAUCAAAAACUGAUUAGUGAAUAUAGUUUGGAGU	1.29
CAAAGCCAAGUCCACCAGAGUGGCUGCAGGCCAGGCCUGGAGUCCCCGUGGGUCAAGCAUUUGUCUUGACUUGCUUUCCUCCCGGGUCUCCAGCCUCCGACCCCUCGCCC	0.241
CUCCUUAAGCCCCUGAAGUUUUAUUGCAUCUGCUAGCACUUGAAUGCUGACUGACAGGCAGAUCCUGAUAUAUCCAAAUUCGAAUUAAUACCAUUUGAAAUGGCAAGUCU	5.92
UCCCUGGGUCCUGGGUCAGUUUGACCCUAGCCCUGGGGUGAGGCAAGCCCCCUCCUAUGAGGAUGAGCAAAAAUACUACUCUCUUCGCCCUGAGUUGCUUUCUGGAUCUG	0.214
UUCUUUACCUGUAUACUAAAAACCCUGUUGUAUUGAUUUUUUUAUAAUAAGCCUUUUUACCUCUGUGUAAAAAAUAUAUAUACAAGUGUAUGAUGUACAUUUUAGUUCUU	0.459
CCCCUCCAGCCAGGACUCUCCUACAUGUGGCCCCCAUAGGCCUCUGUGGCUGCAAGGCGGUCAGUUGCUGCUUGUCCCAGCAGGUGGCCUUGAUCUCUCCAUGCCCCACC	0.385
GCUCUGCCUCUGCAGUUGGCAGGUGUCCCAGAUUUGCUGUUGGACAGGGACCUUCUGCACUCCAUCCAUAAUAGCCUUUGGUACCUUCCAGAGGAGUCCUUCCCGAGAGC	0.488
GUGGUGCAAUCAUGGUUCACUGCAGUCUUGACCUUUUGGGCUCAAGUGAUCCUCCCACCUCAGCCUCCUGAGUAGCUGGGACCAUAGGCUCACAACACCACACCUGGCAA	0.287
CCUGGACGUGAGCUUCCCGCGGUGGCAGAACCGAAUGCUUUCUUCCCCCUCUCCUUCCUCCCCAGUGAGUUCACUUGCCAUUCGGGCACACUGGGUUAUUUCUCCGUCCU	7.36
ACAUGUCACACAAGAGGCCAUGCAUGUUUAACCUAAGCCCUCAAGGGGGCCUGAGGACAGCCUUUUCCUCAGUCCUUGAGAUCAUUGCUCAUCCGUGCCAAACUGGGUAG	7.56
UGAGGCCCUGCUGAGCCAGCAAAAUGCUUUCCAGUUCCUCUUUGGCUCUCACGAUGCCCACCUAGGCUUUCUGGCCAGUGUACUGAACAGUGCUACAAGCCCUCAGGAGC	0.206

Block 4 — target: CCNB2, cyclin fold, Cln2 fusion (human); technique: yeast growth competition, sequencing; medium: yeast; setting: weak parent motif; relative to: not given; reading: higher = stronger binding
Starting sequence: CDKN1C docking peptide (human); TSACRSLFGPVDH; partner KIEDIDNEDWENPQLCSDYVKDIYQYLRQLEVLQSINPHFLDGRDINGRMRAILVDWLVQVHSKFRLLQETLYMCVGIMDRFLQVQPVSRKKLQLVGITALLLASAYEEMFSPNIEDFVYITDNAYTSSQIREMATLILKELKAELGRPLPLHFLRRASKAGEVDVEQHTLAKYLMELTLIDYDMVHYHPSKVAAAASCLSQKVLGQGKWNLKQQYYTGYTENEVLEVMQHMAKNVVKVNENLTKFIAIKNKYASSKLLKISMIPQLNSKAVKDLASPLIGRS
Substitution	normalised enrichment score
G9A	0.332
C4A	0.0404
P10A	0.0177
D12A	0.0803
F8L	0.125
L7A	0.0207
H13A	-0.0893

For quick reference, copied from above (block 2):
Oligonucleotide	E-score
CGCGTGTA	0.218
ATTGCTAA	-0.0732
TCGGGCCA	0.0929
